Results from different studies.
A part holds a random share of what one study measured. Substitutions count along the parent as printed.

Set 1
Target: Hepatocyte nuclear factor 3-alpha (Foxa1, Mus musculus, UniProt P35582, residues 1-468, full length assumed)
Technique: EMSA with sequencing
Form: double-stranded DNA, one strand shown
Medium: in vitro
Concentration: 10 and 20 nM
Notes: whole designed probe, mean of two concentrations, ends assumed
Baseline: negative control set to 0
Direction: higher = stronger binding
Construct (chain): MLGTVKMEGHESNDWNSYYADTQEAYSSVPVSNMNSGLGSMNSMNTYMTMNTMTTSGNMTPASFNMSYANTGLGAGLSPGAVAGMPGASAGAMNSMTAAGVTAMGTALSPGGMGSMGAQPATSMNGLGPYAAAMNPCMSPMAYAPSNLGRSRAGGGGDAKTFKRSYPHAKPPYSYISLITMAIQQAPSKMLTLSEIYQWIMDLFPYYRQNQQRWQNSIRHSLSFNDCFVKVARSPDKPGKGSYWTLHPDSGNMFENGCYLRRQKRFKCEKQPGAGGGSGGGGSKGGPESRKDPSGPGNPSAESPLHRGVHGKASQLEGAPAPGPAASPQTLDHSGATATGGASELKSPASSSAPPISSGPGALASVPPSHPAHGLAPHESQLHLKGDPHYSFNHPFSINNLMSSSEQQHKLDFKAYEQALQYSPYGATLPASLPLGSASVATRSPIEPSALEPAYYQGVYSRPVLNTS
`GTGAGCGGTGCCCATTGATGGGGAACAGATAAAGAATAAGACCTAATATATTTCATATTGTCCTTGAAGGTGAGGAGAGAGGAAATGGAGTGGAGCCATTGTTTTAAGGATGAATATGGGTAATCTTTTTCTGGAACTGATACATGACTGTGTGAGAAGAAAAACTGAGTCATTGTGCCTTGGTGACAATCAATCCATCTCCCATGTTTCAGACAACCTTTTCACTGGGATCGTGGGGAC` — result for “normalised bound fraction”: -0.0544 ratio.
`GTGAGCGGTGCCCATTGATGGGGAACCAACCAAGCAGTATTAGAGCAAATAAGCAAATTCCTCAGTTGAGAGTTAATCTTGCAAACATCCTGCTGTAGGGAAAGGTCATGGCCTGATCTGTAAACACGGGAAGAGAGCCATTGGACTTGGGAATCAGATGCAGCCTCACACGGCTGCAGACCGCAAGACTCATCCTAGACACAGCTTATGTCACTGTGATTTCACTGGGATCGTGGGGAC` — result for “normalised bound fraction”: 0.203 ratio.
For `GTGAGCGGTGCCCATTGATGGGGAACATCACTGGTTCTCAAAGCAAAGTTTACAAAGACCAGGGTCATCCTGAGAGTATGTGGGCAGATTACATGGTGCACTTGACCCTTGCTCCTTTGTGTTTACACAGGCAGAGTCAGGCCAGACTACATGCCAGGGTGACCTTAAGAGAGAAAAGAGGCCAGGCATGGTGGCTCATACCTGTAATCCTAGCACTTTTTTCACTGGGATCGTGGGGAC`, “normalised bound fraction” read 0.405 ratio.
`GTGAGCGGTGCCCATTGATGGGGAACTTTGGATGTTGTCAGTGGGCAGAGATCAGGTCATGTAAGATTACACAGATGGAACAAAGGATTTTTACCCCTTCAGCCAGATCTGGGACTCAATGTAATCTGCAAGATAACAACACAGGAAGGGTTGCAAACATTGTGCCTAGCACAGGGATGACAGCAGGGCGAATCCTGTAATGTCAAATGTCAGTCAAATTTTCACTGGGATCGTGGGGAC` — result for “normalised bound fraction”: 0.0153 ratio.

Set 2
Target: Interferon regulatory factor 5, full length, phosphomimetic (IRF5, Homo sapiens, UniProt Q13568-2, residues 1-514, K96S/S451D/S453D/S456D/S462D)
Technique: protein-binding microarray
Form: double-stranded DNA, one strand shown
Medium: in vitro
Concentration: 250 nM
Notes: 60-bp whole probe
With: salmon DNA 0.4 mg/ml
Baseline: random background probes
Direction: higher = stronger binding
Constant ends, left off below: GCCTAGCAC … GTCTTGATTCGCTTGACGCTGCTG
`TCACACCTCTAGACTCTAACTGTGCTA` gave a log fluorescence of 0.396 z-score.
`TTAGGAATGGGGTATCGGTTAGTGCTA` gave a log fluorescence of 2.66 z-score.
For `TTAGGTATCGGGACTTGGTTAGTGCTA`, the log fluorescence was 1.62 z-score.
For `TTAGGTTTCACTTTCCAAAAGTGCTAG`, the log fluorescence was 7.32 z-score.
`AGCTCTTTCGTTACTTCCTCGTGCTAG` gave a log fluorescence of 5.72 z-score.
With `TTAGAACTGGGGACTTGATTAGTGCTA` the log fluorescence was -0.294 z-score.
`GCAGGTCTGGACCCAGACTCGTGCTAG` gave a log fluorescence of -0.648 z-score.
`TCAACATTCACCATGGCACTGTGCTAG` has a log fluorescence of 0.472 z-score.
`CAGGGGCTGCCTGGATGCCGGTGCTAG` gave a log fluorescence of -0.855 z-score.
`TTAGCTTTCAGACTGGATTAGTGCTAG` has a log fluorescence of 1.46 z-score.
With `TTAGGACTGGGGACTGGGTTTGTGCTA` the log fluorescence was -0.505 z-score.
The log fluorescence of `CTAGGTCTCGGTCTCGGTTAGTGCTAG` is reported as 0.459 z-score.
`GACGGTTTCCTTCTCCTGCCGTGCTAG` has a log fluorescence of 0.782 z-score.
With `GACGATATCAGTTTCGAGTCGTGCTAG` the log fluorescence was 7.26 z-score.
The log fluorescence of `TTCGAACTGAGTCTCGATTAGTGCTAG` is reported as 0.746 z-score.
`GACGGTCTCGGTTTCGCGACGTGCTAG` has a log fluorescence of 0.85 z-score.
`CCCATGCTGGATGAAGTACAGTGCTAG` gave a log fluorescence of -0.598 z-score.

Set 3
Target: Sal-like protein 4, full length isoform B (SALL4, Homo sapiens, UniProt Q9UJQ4-2, residues 1-616)
Technique: universal PBM
Form: double-stranded DNA, one strand shown
Medium: in vitro
Concentration: not given
Notes: 8-mer, flanks averaged, mean of replicates
Direction: higher = stronger binding
With `AAAACCTG` the E-score was 0.0396.
With `CGGTTCAG` the E-score was -0.26.
The E-score of `CGGCCCAC` is reported as -0.309.
`CACGACGG` gave an E-score of -0.0783.
`AGTCTGCG` has an E-score of -0.255.
For `GGTGTGGA`, the E-score was -0.0732.
`TCTTATAA` gave an E-score of 0.28.
For `GCTTTCCC`, the E-score was -0.204.
For `CGAAAGGC`, the E-score was -0.103.
`GGAATGAC` has an E-score of -0.00965.
For `CATAATGG`, the E-score was 0.166.
`CGGAATAG` has an E-score of -0.111.
`GCAAAGCC` gave an E-score of -0.311.
For `ATCGGGGC`, the E-score was -0.199.
With `GGTGCGTA` the E-score was -0.123.
The E-score of `AACTTGGG` is reported as -0.0435.
With `AAACTCCC` the E-score was 0.0116.

Set 4
Target: CCNB3, cyclin fold, Cln2 fusion (human)
Technique: yeast growth competition, sequencing
Medium: yeast
Notes: weak parent motif
Baseline: not given
Direction: higher = stronger binding
Starting sequence: CDC6 docking peptide (human); TLKGRRLVFDNQL
`G4E` — result for “normalised enrichment score”: 0.349.
`K3L`: “normalised enrichment score” 0.598.
`F9H`: “normalised enrichment score” 0.0484.
For `R6E`, “normalised enrichment score” read -0.191.
For `D10R`, “normalised enrichment score” read 0.271.
Under “normalised enrichment score”, `V8A` is recorded as -0.51.
`T1H`: “normalised enrichment score” -0.0828.
`V8M`: “normalised enrichment score” -0.0311.
`R5V`: “normalised enrichment score” 0.292.
For `F9I`, “normalised enrichment score” read 0.312.
For `L2G`, “normalised enrichment score” read 0.175.
`G4P`: “normalised enrichment score” 1.41.
Under “normalised enrichment score”, `T1Y` is recorded as -0.214.
Under “normalised enrichment score”, `F9D` is recorded as 0.246.
`L13E` — result for “normalised enrichment score”: 0.331.
`F9L`: “normalised enrichment score” 0.497.
`D10H` — result for “normalised enrichment score”: -0.00628.
Under “normalised enrichment score”, `R6P` is recorded as 0.898.
For `L13S`, “normalised enrichment score” read 0.377.
For `N11K`, “normalised enrichment score” read 0.0995.
For `V8G`, “normalised enrichment score” read 0.147.
Under “normalised enrichment score”, `L2R` is recorded as 0.513.

Set 5
Target: Histone acetyltransferase KAT6A, both winged helices, GST fusion (KAT6A, Homo sapiens, UniProt Q92794, residues 1-181)
Technique: protein binding microarray
Form: double-stranded DNA, one strand shown
Medium: in vitro
Concentration: not given
Notes: 8-mer, flanks averaged, mean of 2 arrays, mostly near background
Baseline: not given
Direction: higher = stronger binding
Construct (chain): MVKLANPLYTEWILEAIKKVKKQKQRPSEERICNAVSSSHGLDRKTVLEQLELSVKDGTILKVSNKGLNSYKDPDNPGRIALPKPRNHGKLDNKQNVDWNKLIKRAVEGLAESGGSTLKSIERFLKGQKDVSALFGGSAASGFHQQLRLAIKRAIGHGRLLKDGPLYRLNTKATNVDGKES
With `AGGTGCTG` the E-score was -0.266.
`ACGAAGGG` has an E-score of -0.0762.
`AACGCAAG` gave an E-score of -0.00169.
The E-score of `ACATGAAT` is reported as -0.0882.
`CTATAACA` has an E-score of -0.13.
For `CGGACGGA`, the E-score was 0.212.
With `GACGCTGC` the E-score was 0.135.
The E-score of `GCCCAGGC` is reported as -0.131.
For `ACGTTGTC`, the E-score was -0.166.
`AAAAAGCC` gave an E-score of 0.124.
The E-score of `GAGTGAAC` is reported as -0.019.
`AGAACACG` gave an E-score of 0.0199.
For `ACCGCAAT`, the E-score was 0.228.
For `GGGCACAA`, the E-score was -0.0291.
`ACGGTGAA` gave an E-score of 0.106.
For `AGTGTGGG`, the E-score was -0.293.
For `TAGGCGGA`, the E-score was 0.0915.

Set 6
Target: UBE2E1 UBC core domain (UniProt P51965)
Chain of UniProt P51965 (whole entry, looked up): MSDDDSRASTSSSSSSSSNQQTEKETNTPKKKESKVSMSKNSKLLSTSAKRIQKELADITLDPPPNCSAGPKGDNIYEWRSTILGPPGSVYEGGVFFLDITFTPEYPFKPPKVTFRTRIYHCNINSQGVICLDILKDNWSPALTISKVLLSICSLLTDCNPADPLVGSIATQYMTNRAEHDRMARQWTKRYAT
Technique: yeast two-hybrid
Medium: yeast
Notes: mostly zero background
Baseline: not given
Direction: higher = stronger interaction
B1: DTX2 RING domain (UniProt Q86UW9); chain EELKVPPDEDCIICMEKLSTASGYSDVTDSKAIGSLAVGHLTKCSHAFHLLCLLAMYCNGNKDGSLQCPSCKTIYGEKTGTQ
B2: RBCK1 RING domain (UniProt Q9BYM8); chain SLVLNTEPAECPVCYSVLAPGEAVVLRECLHTFCRECLQGTIRNSQEAEVSCPFIDNTYSCSGKLLEREIK
B3: SH3RF1 RING domain (UniProt Q7Z6J0); chain DESALLDLLECPVCLERLDASAKVLPCQHTFCKRCLLGIVGSRNELRCPECRTLVGSGVEEL
B4: RNF19A RING domain (UniProt Q9NV58); chain ISKQIGDFIECPLCLLRHSKDRFPDIMTCHHRSCVDCLRQYLRIEISESRVNISCPECTERFNPHDIR
B5: MAP3K1 RING domain (UniProt Q13233); chain NSIKDEEEQMCPICLLGMLDEESLTVCEDGCRNKLHHHCMSIWAEECRRNREPLICPLCRSKWRSHDFYS
`B1 (DTX2 RING domain)` — result for “lacZ reporter activity”: 0.
`B2 (RBCK1 RING domain)`: “lacZ reporter activity” 0.
Under “lacZ reporter activity”, `B3 (SH3RF1 RING domain)` is recorded as 0.
Under “lacZ reporter activity”, `B4 (RNF19A RING domain)` is recorded as 0.
Under “lacZ reporter activity”, `GSRLQEINDVCAICYHEFTTSARITPCNHYFHALCLRKWLYIQDTCPMCHQKVYIEDDIK (RNF139 RING domain (UniProt Q8WU17))` is recorded as 0.
`B5 (MAP3K1 RING domain)` — result for “lacZ reporter activity”: 11900.

Set 7
Target: PABPC1L2, full length, GST fusion (mouse, UniProt A0ABA7IW68)
Technique: RNAcompete
Form: RNA
Medium: in vitro
Concentration: 20 nM
Notes: 7-mer, probes averaged, single round
Baseline: mean of 7-mers
Direction: higher = stronger binding
Target sequence (chain): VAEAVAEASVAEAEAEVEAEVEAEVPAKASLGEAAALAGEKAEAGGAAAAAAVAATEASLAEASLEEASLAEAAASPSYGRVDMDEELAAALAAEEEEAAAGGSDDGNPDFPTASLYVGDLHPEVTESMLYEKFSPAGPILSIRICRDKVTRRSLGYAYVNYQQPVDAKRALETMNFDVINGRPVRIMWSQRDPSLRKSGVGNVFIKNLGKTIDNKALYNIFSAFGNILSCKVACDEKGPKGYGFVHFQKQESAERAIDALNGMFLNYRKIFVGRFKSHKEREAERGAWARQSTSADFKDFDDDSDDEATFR
With `AUCAAGA` the 7-mer Z-score was 0.229.
`UGGCUCA` has a 7-mer Z-score of -0.0573.
The 7-mer Z-score of `UACCAGA` is reported as 0.037.
For `GCUACGU`, the 7-mer Z-score was -0.195.
`GGUCUUC` has a 7-mer Z-score of -0.322.
`UUUCAAU` has a 7-mer Z-score of -0.32.
`GAGUCUU` gave a 7-mer Z-score of -0.499.
`UGAGAGC` has a 7-mer Z-score of -0.17.
`GAAAUAA` gave a 7-mer Z-score of 1.57.
`AUGGCAG` has a 7-mer Z-score of 0.222.
For `UAAAGGU`, the 7-mer Z-score was 0.566.
With `CCUUGGG` the 7-mer Z-score was -0.293.
`UAGUCUU` gave a 7-mer Z-score of -0.358.
The 7-mer Z-score of `GUUUGCU` is reported as -0.456.
With `AUUCCGA` the 7-mer Z-score was -0.137.

Repeated from above (set 4):
Under “normalised enrichment score”, `F9D` is recorded as 0.246.
`L13E` — result for “normalised enrichment score”: 0.331.
`F9L`: “normalised enrichment score” 0.497.
`D10H` — result for “normalised enrichment score”: -0.00628.
Under “normalised enrichment score”, `R6P` is recorded as 0.898.
For `L13S`, “normalised enrichment score” read 0.377.
For `N11K`, “normalised enrichment score” read 0.0995.
For `V8G`, “normalised enrichment score” read 0.147.
